Assay results collected from several papers.
Each numbered part is a random draw from the data of one study; scales do not carry over between parts.

Block 1 — method: protein binding microarray; form: double-stranded DNA, one strand shown; matrix: in vitro; concentration: not given; reference: not given; reading: higher = stronger binding
Target: Histone acetyltransferase KAT6A, both winged helices, GST fusion (KAT6A, Homo sapiens, UniProt Q92794, residues 1-181)
Setting: 8-mer, flanks averaged, mean of 2 arrays, mostly near background
Construct (chain): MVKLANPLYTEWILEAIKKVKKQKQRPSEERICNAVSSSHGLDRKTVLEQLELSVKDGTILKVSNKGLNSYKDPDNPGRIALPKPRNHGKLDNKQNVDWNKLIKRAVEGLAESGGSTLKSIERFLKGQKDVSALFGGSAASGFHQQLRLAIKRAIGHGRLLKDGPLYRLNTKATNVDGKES
Sequence | E-score
CAGATATC | -0.0308
AGGCCGCA | 0.0918
TGATTCCA | -0.12
AGGCCTAG | -0.176
CGGGTAAA | 0.163
AGTAGCTG | -0.268
ACGTTCAC | 0.0587
ACACCCTG | -0.271
AGGTCAGC | 0.058
ATTAGGAC | -0.115
CCTCGACC | -0.159
CCCGGGAA | 0.254
AGCAAGCG | 0.17
CCTCGAGA | -0.184
AAACCAGA | -0.222
ATCGACGA | 0.0484
AGCTGATC | -0.124
CAAGTATG | -0.0422
AACCTCCA | -0.199
CACCTACG | 0.0379
AAATGCCT | -0.214
CTCGGTTC | -0.0934

Block 2 — method: RNA Bind-n-Seq; form: RNA; matrix: in vitro; concentration: not given; setting: RNA with constant flanks, ends assumed; reference: input RNA pool; reading: higher = stronger binding
Target: RING finger protein unkempt homolog, zinc fingers 1-6, GST-SBP tag (UNK, Homo sapiens, UniProt Q9C0B0, residues 30-357)
Sequence of UniProt Q9C0B0 (30-357, looked up): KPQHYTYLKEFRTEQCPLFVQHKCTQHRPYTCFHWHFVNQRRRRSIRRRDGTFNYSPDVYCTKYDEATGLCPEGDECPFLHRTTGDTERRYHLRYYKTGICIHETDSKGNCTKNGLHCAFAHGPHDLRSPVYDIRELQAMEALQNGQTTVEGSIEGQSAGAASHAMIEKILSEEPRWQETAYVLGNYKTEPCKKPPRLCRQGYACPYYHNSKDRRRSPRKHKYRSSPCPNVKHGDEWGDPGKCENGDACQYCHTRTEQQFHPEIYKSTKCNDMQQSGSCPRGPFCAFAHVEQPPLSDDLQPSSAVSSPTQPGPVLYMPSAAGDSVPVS
Shared flanks, not repeated: GGGAGUUCUACAGUCCGACGAUC … CAACAGAGGAUUGAGCAUCA
Sequence | bound/input enrichment [ratio]
UGAUUAUUCACUUUAGAUGCUGAUUCUUUUUUUUUUUUUUUUUUGUAUUUUUAAUGGGGGCCGCAGCUGGACCCUUGACCUUCUCAUGCCCACACCCACCCUGCCCUUCCCAUGGCUGCC | 8.89
CCAGAUAACCCGGGUUCUAUUCACAGGGCCCAGUUCCAAGGGCACUGCACACAGUGAUGCACCGAUGUAUGCAGGCAAAACACCCAUUCACAUAAAAUAAAAUGAUCUUUAAAAAAUACU | 0.301
GAGGUAGAUCAAGAGCUCGUUGAACUACUAGUGAAAGAAACGGAAGCAAGAUUUCCAGAUGCCGCAAAUGGGUUUAUUGAGGAAAUAAUUCAUUUUAAGAAUUAUUAUGAUCUGAAUGUA | 0.222
UUAAUAAUAGGAAAAGGAGGUGAAACCAUAAAAAGCAUAAGCCAGCAGUCUGGUGCAAGAACCGAACUUCAGAGAAAUCCUCCACCAAAUGCAGAUCCUAAUAUGAAGUUAUUUACAAUU | 0.271
ACAGAUGAAGCUGACCUGGUUCUUGCAAAAGAAGCUAAUGUGAAAUGUCCACAAAUUGUGACCGCAUUUUAUGAAGAGAGACUGACAUGGCAUGCAUAUCCUGAGGAUGCGGAAAACAAA | 0.237
AAGGAAAUGCUGGCUGCAAACCCUCAGGAUCGUCCAGAUGCUUUUGAACUAGAACUCAGAUCCGUACAAAUUGCAUUUAAAGAUAGCAGCUGGGAAACGUGACACAUAUUAUUUGCAAAU | 0.275
UGUGUAUGUACUGGCAGUAUUAAAUUUAUUCAUCAAGAAUGCUUAGUUCAGUGGUUGAAACACCGUCGGAAAGAAUACUGUGAAUUAUGCAAGCACAGAUUUGCUUUCACACCAAUUUAU | 0.898
CGUAGUCUCCUGCAGCGUCUGGGGUUUCCGUUGCAGUCCUCGGAACCAGGACCUCGGCGUGGCCCCGCGAGUUAUGGCGACGAAGGCCGUGUGCGUGCUGAAGGGCGACGGCCCAGUGCA | 0.132
GGAACGUCAUUUGUCAUGGAUGUUCUACGCCCACAGAUUGUAACGUUCGAUGGACGGAAUUACCGAAAGAAUCCCAUCCAGGAGAAACAGUACCAACAUGAAGAAGACGAGGAUUUCUAU | 0.159
GUUGUACCGAAAGGCAAAGGAGAACAGAUUGCAAGGGAGCAUGGUAUUAGGUUUUUUGAGACCCGUGCAAAAGCAAAUAUAAACAUCGAAAAGGCGUUCCUCACAUUAGCUGAAGACAUC | 0.65
CCACUUCGAAGCGUCUUGGAGCAAUCCAAGUUAAAGAAAGAAGAUAUUUAUGCAGUGGAGACCGUUGGUGGUGCCACACGAAUCCCUGCAGUGAAAGAGAAGAUCAGCAAGUUUUUUGGU | 0.155

Block 3 — method: EMSA with sequencing; form: double-stranded DNA, one strand shown; matrix: in vitro; concentration: 10 and 20 nM; reference: negative control set to 0; reading: higher = stronger binding
Target: Hepatocyte nuclear factor 3-alpha (Foxa1, Mus musculus, UniProt P35582, residues 1-468, full length assumed)
Sequence of UniProt P35582 (whole entry, looked up): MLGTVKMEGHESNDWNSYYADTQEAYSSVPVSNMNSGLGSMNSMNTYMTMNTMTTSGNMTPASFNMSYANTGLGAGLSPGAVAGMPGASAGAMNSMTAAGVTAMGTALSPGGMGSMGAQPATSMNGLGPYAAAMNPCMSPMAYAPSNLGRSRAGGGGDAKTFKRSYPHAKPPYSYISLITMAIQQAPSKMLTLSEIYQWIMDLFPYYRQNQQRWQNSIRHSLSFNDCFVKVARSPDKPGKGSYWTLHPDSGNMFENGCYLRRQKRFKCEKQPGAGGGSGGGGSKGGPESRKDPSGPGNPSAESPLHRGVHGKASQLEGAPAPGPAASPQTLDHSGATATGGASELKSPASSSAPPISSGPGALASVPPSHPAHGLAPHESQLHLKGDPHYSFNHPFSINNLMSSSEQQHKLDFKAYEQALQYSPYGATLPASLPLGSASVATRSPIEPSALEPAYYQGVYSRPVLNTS
Setting: whole designed probe, mean of two concentrations, ends assumed
Shared flanks, not repeated: GTGAGCGGTGCCCATTGATGGGGAAC … TTTCACTGGGATCGTGGGGAC
Sequence | normalised bound fraction [ratio]
GTAACTACAGTCTCAACCTGCCACATTTTATCATAGGATCAAATCCAGTAATAAAATAATGAGTCTTGGAGGGCAGGCCAGACAGCTCATCTGAGATTACTGAAAGCATCCAGCATATCTTATGAGACACGTGGTGCCAAACAGATGGGTGGCCGCCCTCCCTCATCTGCCTGCCTGAGGCTTGCCCAACTGC | -0.0587
CCTAGGACCATCTTCTACTTATGAGAGTGAACTTCACTGTATGTCACCAATTCCGTACCTTGTCTATTGTTTAATAGTCGAGATACTGTCAAAGTAAACAAATGCTGCCACCTTGTGGACTGAAGGGTATGGTCTTAACTCCAAATAAGCAAAGGAAGAAAAATACGTTTCTGGTTCGGCCTTTTCTCTCAGA | 0.483
CTCTCTGGTGGTTCTAGCTCATACACGGCTAATGATTTATGAGGCAGTGTTGTGTGGCACTACCTAGCTGTTACTTTCTTGCCTACTCTGCTGAGTAATCTGGGGCCCTGTCTTAGCTGGGTTTGAAGTCTGTTCCCTAGGGAAGGGCACTGTGTCCCCGAGTCACCAGAGAGGAGGGGCAAGGGCATCTCCT | -0.0951
GATATTTGCAATCAATCTACTAGTTAACTATAAATGGAACAATGTACTTTCTTCCTTTCTCCAAACTGGAGAAGAGACTTTTAGAAGAATCTGAGTAAACAGGAAAACTTAGTCTTATCTTACAAGTCAAGGAAGCAGTTATTAAGAACATATGGATAAGCATGAAATCAAATCTTATTCTCTGCAAAGGAGC | 0.144
ATCTTCCCCCTCTTCCTTGCCCCACCAGCTCACCTACGGGGGTTATTTGCACAAAGGAAAATAAATAAAGCCGGCATTCGTTAACGCAGTTCTGGCGCAAACTGCTGTTTGCTCTGCATCTAACATGGTCCTTACGCGACGCCAGGCTCCGGGAGAGCAAAGCACCGTGTCAGGCGCATGATCCGGGCTCGCC | 0.394
AATCCAGCTACCTATCTTCAGTTCCTTGGCCTTCAGCTGGCAGTGAAACAGACACATCAGCTTTAAGACTGGCAGCCAAATAGTTAACGATCTGTAAACATACAAATACGCATGTAGAGAGTTCCTGTTCAAACAGACTGGATGAAAGCCCTTCCATAAAGAACCCTTTAGGTGATGATGCTAAAATTATTTT | 0.24
TCTGCTGCAGGGCTTGCAGGAACAAATGTTTACAGCCCCTAGGCGGCAGGGGGAGCATCTCCCCTCTGAGTTATGAGCTTTAGAGGCTCCTGTGTAAATATTTACCTCTCTAGAGCATTGGTGACCGTGGGAGATCGGGATCTGTAAGCACTGAGGTTTTCTGTTTGCGTCATCGTGGCCAGGGTGGGGTGGG | 0.404
ATCTCGTAACAAATGGCTTCAGGGTGTTCAGCTGTTCTGCAGCTATGCTGAGGAATTCCTGCCTGTACAAAAGTCACAGTGCCAAGTCCTGTTTGTTTACATTTTACTAATAAACCTCTGCCTCTGTGCTTAGCCTGAGGGGCTGCAGAGCTCCACACCCAGGAGTGGGCCCTCTGGGGATGCTGGGGTTTGA | 0.48

Block 4 — method: DNA-protein interaction ELISA; form: double-stranded DNA, one strand shown; matrix: in vitro, bacterial lysate; concentration: not given; setting: whole dsDNA probe, crude lysate protein; reference: highest signal in screen; reading: higher = stronger binding
Target: Probable WRKY transcription factor 33, C-terminal DNA-binding domain (WRKY33, Arabidopsis thaliana, UniProt Q8S8P5, residues 346-449)
Residues (chain): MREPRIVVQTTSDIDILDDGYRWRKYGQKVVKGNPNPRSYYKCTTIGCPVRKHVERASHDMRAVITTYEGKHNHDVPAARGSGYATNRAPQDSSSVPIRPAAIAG
Sequence | relative absorbance
AAAAAATGGATCTTTACTTTAGGCCAAAAA | 65.5 % of maximum
AAAAAATATCGGGCACGGTCTTGTCTAAAA | 49.8 % of maximum
AAAAAACGTTAACACTGATTTAGGGTAAAA | 24.6 % of maximum
AAAAAAGAAATACCAGAAACTATCATAAAA | 59.9 % of maximum
AAAAAAGCCCCTTGCGCCTCTCTACCAAAA | 27.3 % of maximum
AAAAAAACCCGTGCCTGCCTATTGCAAAAA | 33.8 % of maximum
AAAAAACCGCTTACATTGCGTTGTCGAAAA | 26.4 % of maximum
AAAAAAATCGTTGTTATCGTATTTATAAAA | 35.6 % of maximum
AAAAAAAGTTACCAGTACGCGTCGGGAAAA | 52.3 % of maximum
AAAAAAGTTCGTGCTTAACCCAGTTTAAAA | 41.1 % of maximum
AAAAAAACCGCGTCGCGGCCCGGGAAAA | 46.5 % of maximum
AAAAAATGGGGCTCTGGCCCACCGTAAAAA | 40.7 % of maximum
AAAAAACTGGATGCGCTCACCAGTTAAAAA | 30.6 % of maximum
AAAAAAGTCATTATAACCCAAACTCTAAAA | 52.6 % of maximum
AAAAAATTAGTCCTGATTCAATCTTCAAAA | 66.2 % of maximum
AAAAAAGGCTCCGGCCCCCAATCGCAAAAA | 31.1 % of maximum
AAAAAAGGCTTCCACTTTGAGTTTGCAAAA | 26 % of maximum
AAAAAATTACTATTACACACTTGGGGAAAA | 30.5 % of maximum
AAAAAATTACTCCTAGCCCTCATTCAAAAA | 65.7 % of maximum
AAAAAACGTATTGATGTCTATTTCAAAAAA | 27.9 % of maximum
AAAAAATAGACCCTGACCCACCATTGAAAA | 42.4 % of maximum
AAAAAATTCTTACTTTTGTCTTTACTAAAA | 57.5 % of maximum

Block 5 — method: universal PBM; form: double-stranded DNA, one strand shown; matrix: in vitro; concentration: 600 nM; reading: higher = stronger binding
Target: Sal-like protein 4, full length isoform A (SALL4, Homo sapiens, UniProt Q9UJQ4, residues 1-1053)
Sequence of UniProt Q9UJQ4 (whole entry, looked up): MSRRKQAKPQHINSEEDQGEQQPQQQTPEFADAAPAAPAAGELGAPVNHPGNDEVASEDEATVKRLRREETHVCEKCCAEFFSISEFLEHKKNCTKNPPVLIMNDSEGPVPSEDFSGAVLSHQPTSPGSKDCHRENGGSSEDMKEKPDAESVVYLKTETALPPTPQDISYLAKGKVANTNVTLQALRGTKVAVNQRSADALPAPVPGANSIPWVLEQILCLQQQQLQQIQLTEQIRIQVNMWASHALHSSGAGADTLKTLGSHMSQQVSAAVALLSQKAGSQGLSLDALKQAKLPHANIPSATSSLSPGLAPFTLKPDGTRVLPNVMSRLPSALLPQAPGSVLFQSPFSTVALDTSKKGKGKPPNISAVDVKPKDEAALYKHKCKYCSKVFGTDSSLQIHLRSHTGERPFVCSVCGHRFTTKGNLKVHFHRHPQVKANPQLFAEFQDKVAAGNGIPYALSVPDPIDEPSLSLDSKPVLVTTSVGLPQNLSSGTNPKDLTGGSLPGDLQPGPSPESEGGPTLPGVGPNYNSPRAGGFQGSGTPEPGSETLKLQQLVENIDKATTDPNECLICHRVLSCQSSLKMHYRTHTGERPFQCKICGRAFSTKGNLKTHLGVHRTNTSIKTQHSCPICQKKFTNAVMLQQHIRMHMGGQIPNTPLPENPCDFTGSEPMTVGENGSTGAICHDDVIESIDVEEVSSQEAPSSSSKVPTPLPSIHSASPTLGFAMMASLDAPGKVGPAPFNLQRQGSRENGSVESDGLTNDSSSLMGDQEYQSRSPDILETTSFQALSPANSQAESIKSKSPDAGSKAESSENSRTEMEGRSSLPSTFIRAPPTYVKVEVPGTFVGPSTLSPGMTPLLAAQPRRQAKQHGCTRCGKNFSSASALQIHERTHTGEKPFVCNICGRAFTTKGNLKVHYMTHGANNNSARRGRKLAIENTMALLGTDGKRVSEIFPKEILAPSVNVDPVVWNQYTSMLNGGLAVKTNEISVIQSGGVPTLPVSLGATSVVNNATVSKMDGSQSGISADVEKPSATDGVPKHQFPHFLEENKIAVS
Setting: 8-mer, flanks averaged, mean of replicates
Sequence | E-score
AGTGTAGC | -0.0533
TAAGGTCA | 0.0933
CGCTCCAG | -0.142
AACATTTG | 0.15
ATGAGCTC | -0.0947
CACAATCC | 0.0268
CACCCGTC | -0.295
TAGACGGA | 0.0323
ATTTAGGA | 0.155
CTGGTGAA | -0.103
AGCGGCGC | -0.338
AATAGGAG | 0.128
AATTGGCT | 0.17
CAGTTGGA | -0.0839
AATATCGA | 0.3
ATCGCTCG | -0.072
ACCTGCTC | -0.0839
GAGGCTAA | 0.0101
AGTGTGGC | -0.108
ACCAACTA | 0.129
